Assay results from different studies.
Parts stem from different laboratories: compare values within a part only. Positions count from the first letter of the parent shown.
Sequence of UniProt P06239 (whole entry, looked up): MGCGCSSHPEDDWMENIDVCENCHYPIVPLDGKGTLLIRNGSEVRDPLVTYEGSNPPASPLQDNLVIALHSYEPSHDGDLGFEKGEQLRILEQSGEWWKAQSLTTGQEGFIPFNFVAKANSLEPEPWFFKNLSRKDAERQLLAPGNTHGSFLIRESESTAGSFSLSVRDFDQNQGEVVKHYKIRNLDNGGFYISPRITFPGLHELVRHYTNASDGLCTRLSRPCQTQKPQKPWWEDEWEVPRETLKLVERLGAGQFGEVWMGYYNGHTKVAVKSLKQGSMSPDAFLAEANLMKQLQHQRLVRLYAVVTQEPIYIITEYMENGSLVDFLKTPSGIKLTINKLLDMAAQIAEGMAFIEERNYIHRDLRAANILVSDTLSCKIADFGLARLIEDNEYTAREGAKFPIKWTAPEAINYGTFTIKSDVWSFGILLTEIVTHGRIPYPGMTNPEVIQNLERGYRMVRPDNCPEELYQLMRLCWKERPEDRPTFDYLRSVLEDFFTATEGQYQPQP

Study 1
Target: CCND2, cyclin fold, Cln2 fusion (human)
Technique: yeast growth competition, sequencing
Medium: yeast
Setting: weak parent motif
Baseline: not given
Direction: higher = stronger binding
Endpoint: normalised enrichment score
Starting sequence: viral docking peptide; TSVRRALFTGGSD; partner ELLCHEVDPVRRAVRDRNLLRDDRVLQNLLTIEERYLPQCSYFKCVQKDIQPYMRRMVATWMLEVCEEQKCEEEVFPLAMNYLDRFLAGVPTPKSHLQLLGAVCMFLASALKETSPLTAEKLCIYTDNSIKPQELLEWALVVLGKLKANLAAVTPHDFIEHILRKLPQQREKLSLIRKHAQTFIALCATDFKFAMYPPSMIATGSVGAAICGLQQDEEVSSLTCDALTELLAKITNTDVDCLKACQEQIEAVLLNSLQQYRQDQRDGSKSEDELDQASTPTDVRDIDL
R5D: -0.0908
R4W: -0.393
S12C: -0.0182
R5K F8L: 0.193
A6I: 0.335
D13A: 0.309
G11A: -0.0866
A6H: 0.17

Study 2
Target: UDP-N-acetylglucosamine--peptide N-acetylglucosaminyltransferase 110 kDa subunit (OGT, Homo sapiens, UniProt O15294)
Sequence of UniProt O15294 (whole entry, looked up): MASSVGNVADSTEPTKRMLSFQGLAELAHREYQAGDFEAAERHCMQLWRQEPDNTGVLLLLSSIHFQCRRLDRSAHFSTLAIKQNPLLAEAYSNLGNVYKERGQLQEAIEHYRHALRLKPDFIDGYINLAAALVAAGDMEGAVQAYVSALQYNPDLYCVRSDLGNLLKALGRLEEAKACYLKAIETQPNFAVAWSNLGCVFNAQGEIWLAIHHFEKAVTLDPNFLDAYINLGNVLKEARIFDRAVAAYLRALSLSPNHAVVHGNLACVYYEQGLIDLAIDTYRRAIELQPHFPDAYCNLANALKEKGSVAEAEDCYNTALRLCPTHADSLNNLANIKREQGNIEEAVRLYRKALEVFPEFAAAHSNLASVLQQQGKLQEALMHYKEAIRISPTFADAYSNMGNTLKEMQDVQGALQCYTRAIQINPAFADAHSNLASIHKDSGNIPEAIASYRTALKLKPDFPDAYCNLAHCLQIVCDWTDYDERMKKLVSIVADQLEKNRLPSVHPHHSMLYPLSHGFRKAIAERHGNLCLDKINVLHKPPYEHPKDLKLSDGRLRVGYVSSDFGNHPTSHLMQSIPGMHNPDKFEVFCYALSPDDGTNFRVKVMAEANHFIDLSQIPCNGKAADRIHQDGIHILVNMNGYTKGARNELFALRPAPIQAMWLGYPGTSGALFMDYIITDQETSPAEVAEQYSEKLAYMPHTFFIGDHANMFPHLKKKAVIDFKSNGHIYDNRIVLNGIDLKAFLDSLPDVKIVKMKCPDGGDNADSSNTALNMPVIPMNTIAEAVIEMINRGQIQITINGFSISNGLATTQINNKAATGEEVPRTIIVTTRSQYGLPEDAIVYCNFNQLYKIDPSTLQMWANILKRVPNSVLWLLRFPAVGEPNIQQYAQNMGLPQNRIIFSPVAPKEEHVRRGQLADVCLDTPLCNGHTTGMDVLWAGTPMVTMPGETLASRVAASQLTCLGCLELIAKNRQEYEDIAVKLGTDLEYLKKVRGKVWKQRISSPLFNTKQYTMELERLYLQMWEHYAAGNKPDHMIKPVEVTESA
Read-out: binding
Technique: phage display NGS
Molecule type: peptide
Tested at: concentration not given
Setting: panning round 2
Baseline: input library
Endpoint: enrichment fold change
HSQHMFEHEHVVKA: 4.81
THPTKYHRHDHIRMI: 5.41
NQYHHGNTGNFHTHP: 7.62
HTQPMEHNFHHYHF: 5.5
HQYDIHHHTYTVRVH: 5.14
SNFMPFYIIQVKADT: 18.8
DHAHRHWYAMRNHHT: 6.03
WPHAQHITHQDDWHR: 4.82

Study 3
Target: tungstate, free oxyanion
Technique: microfluidic competitive inhibition
Medium: in vitro, cell-free expressed
Tested at: not given
Setting: derived from inhibition constants, unchanged parent 2230 nM
Direction: lower = stronger binding
Endpoint: oxyanion analog dissociation constant
Starting sequence: PafA, mature enzyme, eGFP fusion (Elizabethkingia meningoseptica, UniProt Q9KJX5); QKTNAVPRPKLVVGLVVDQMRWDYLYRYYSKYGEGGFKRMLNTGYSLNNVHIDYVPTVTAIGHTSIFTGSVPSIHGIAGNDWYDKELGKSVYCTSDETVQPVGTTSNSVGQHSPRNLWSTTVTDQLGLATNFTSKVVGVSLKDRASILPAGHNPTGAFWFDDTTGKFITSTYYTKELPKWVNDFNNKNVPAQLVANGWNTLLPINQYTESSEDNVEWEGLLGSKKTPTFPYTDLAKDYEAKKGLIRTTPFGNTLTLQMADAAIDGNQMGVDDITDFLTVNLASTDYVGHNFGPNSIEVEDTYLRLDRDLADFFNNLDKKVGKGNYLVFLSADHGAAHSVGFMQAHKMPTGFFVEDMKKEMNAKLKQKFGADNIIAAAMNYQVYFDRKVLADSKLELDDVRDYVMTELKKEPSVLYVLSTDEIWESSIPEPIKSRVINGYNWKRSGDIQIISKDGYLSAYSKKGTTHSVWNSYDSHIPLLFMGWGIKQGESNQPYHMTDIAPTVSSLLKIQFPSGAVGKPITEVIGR
L396G: 2.23 µM
N214V: 2.63 µM
P230V: 2.22 µM
R8V: 2.31 µM
T68G: 1 µM
L456V: 3.11 µM
K363V: 2.61 µM
A5V: 2.14 µM

Further values, each from its own experiment
COC(=O)c1cc(N(C)C(=O)c2ccn3ncc(-c4ccc(C(=O)O)cc4)c3c2)ccc1Cl — IC50 (Tyrosine-protein kinase Lck (LCK, Homo sapiens, UniProt P06239); enzyme activity, inhibitor): > 30 µM

For quick reference, copied from above (study 1):
A6H: 0.17
S12C: -0.0182
